Results pooled from the literature.
Lines come from different studies, so protocols differ.
Genome polyprotein NS2B-NS3 protease: Genome polyprotein, NS2B-NS3 protease (dengue virus type 2, UniProt P29990)
Chain of UniProt Q01727 (whole entry, looked up): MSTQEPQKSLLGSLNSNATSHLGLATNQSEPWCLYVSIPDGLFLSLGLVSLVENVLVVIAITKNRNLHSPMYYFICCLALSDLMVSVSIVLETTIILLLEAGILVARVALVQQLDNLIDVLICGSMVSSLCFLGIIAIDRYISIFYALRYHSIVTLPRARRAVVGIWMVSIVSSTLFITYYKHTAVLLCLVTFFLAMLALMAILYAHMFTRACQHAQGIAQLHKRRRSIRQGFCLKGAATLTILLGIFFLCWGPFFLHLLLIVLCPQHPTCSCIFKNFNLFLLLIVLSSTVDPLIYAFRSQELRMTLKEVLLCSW
Chain of UniProt P21728 (whole entry, looked up): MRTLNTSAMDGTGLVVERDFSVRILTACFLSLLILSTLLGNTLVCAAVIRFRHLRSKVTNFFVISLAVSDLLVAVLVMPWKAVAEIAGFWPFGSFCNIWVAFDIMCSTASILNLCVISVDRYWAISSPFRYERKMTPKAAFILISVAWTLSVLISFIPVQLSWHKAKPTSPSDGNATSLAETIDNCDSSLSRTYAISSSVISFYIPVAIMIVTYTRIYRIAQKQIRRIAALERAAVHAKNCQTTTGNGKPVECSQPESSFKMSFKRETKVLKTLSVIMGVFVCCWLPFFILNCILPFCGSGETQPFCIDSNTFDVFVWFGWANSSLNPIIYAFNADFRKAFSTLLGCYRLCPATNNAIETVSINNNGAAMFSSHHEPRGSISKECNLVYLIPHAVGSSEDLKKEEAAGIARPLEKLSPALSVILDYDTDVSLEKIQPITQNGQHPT
Chain of UniProt Q86Y97 (whole entry, looked up): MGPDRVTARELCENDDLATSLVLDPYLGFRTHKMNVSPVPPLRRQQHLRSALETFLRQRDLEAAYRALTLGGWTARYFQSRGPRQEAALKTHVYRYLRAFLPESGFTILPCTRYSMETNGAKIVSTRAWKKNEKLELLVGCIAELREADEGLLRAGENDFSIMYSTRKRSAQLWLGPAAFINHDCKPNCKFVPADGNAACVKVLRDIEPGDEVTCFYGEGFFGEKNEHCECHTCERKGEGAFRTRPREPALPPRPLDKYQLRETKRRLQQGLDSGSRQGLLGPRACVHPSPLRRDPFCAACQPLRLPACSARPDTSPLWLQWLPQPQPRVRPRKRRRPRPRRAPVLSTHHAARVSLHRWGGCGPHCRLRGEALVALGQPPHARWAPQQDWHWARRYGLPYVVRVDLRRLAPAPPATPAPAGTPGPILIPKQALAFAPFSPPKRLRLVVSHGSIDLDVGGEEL
Chain of UniProt Q7Z5W3 (whole entry, looked up): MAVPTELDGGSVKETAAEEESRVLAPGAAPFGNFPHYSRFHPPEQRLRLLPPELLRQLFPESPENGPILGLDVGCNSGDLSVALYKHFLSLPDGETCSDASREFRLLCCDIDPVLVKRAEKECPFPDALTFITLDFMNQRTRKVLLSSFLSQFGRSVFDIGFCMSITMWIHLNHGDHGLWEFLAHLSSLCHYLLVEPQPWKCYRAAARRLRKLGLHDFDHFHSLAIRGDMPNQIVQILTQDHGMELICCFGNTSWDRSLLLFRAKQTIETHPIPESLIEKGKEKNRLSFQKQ
Chain of UniProt Q96RI0 (whole entry, looked up): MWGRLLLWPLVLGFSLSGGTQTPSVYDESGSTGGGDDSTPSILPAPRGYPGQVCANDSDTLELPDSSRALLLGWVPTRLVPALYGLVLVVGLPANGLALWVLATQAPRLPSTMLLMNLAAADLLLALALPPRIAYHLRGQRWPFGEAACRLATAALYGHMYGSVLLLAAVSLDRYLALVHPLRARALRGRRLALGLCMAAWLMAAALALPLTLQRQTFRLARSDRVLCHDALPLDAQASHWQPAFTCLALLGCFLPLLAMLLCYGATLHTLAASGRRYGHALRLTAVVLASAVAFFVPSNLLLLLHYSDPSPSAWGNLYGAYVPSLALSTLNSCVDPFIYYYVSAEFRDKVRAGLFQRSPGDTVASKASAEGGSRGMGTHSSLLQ
Chain of UniProt P21452 (whole entry, looked up): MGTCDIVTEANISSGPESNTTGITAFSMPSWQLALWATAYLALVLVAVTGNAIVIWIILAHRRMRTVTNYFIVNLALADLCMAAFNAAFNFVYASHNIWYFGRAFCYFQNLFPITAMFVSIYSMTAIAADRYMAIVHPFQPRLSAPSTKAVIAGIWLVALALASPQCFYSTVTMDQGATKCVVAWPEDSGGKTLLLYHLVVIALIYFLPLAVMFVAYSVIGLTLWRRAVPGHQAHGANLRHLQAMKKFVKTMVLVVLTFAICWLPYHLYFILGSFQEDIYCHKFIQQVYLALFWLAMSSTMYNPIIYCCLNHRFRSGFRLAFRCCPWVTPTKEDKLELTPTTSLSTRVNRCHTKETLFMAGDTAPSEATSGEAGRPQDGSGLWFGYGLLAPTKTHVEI

C/C=C/C(=O)Nc1ccc2nc(NCCCCCN(C)C)nc(NCCCCCCN(C)C)c2c1 gave an inhibition of 71% (BCDIN3D (Homo sapiens, UniProt Q7Z5W3); enzyme activity, inhibitor, radiometric; 50 µM).
With CCCCCCCCCCCCCCCC(=O)N[C@@H](CCCCN)C(=O)N[C@@H](CCCCN)C(=O)N[C@@H](CO)C(=O)N[C@@H](CCCNC(=N)N)C(=O)N[C@@H](C)C(=O)N[C@@H](CC(C)C)C(=O)N[C@@H](Cc1ccccc1)C(N)=O the inhibition was 34% (F2RL3 (Homo sapiens, UniProt Q96RI0); platelet aggregation, ex vivo LTA; human; 0.5 mg/kg, 4 to 6 h, with: AYPGKF 160 µM; baseline: baseline).
For NC(=O)c1cccc(NC(=O)c2cc(-c3ccc(Cl)cc3)n(-c3ccccc3)n2)c1, the inhibition was 58% (Genome polyprotein NS2B-NS3 protease; enzyme activity, fluorogenic AMC substrate; 50 µM).
O=C1c2sc(-c3ccc(N4CCC(F)C4)nc3F)nc2CCN1c1cccnc1 (stereo not drawn) gave an inhibition of 1% (Mc1r (Mus musculus, UniProt Q01727); ligand displacement, radioligand; 1 µM).
With N=C(N)NCc1cccc(NC(=O)c2cc(-c3ccccc3)n(-c3ccccc3)n2)c1 the inhibition was 34% (Genome polyprotein NS2B-NS3 protease; reporter gene; HeLa; 12.5 µM).
C[Si](C)(C)C[C@@H](CN)CC(=O)O gave an inhibition of -13% (TACR2 (Homo sapiens, UniProt P21452); ligand displacement, radioligand; 75 µM).
The inhibition of CN(C)C/C=C/C(=O)Nc1ccc2nc(NCCCCCN(C)C)nc(NCCCCCCN(C)C)c2c1 is reported as 42% (KMT5C (Homo sapiens, UniProt Q86Y97); enzyme activity, inhibitor, radiometric; 10 µM).
O=C1c2sc(-c3ccc(N4CCC(CO)CC4)nc3F)nc2CCN1c1cccnc1 has an inhibition of 3% (DRD1 (Homo sapiens, UniProt P21728); ligand displacement, radioligand; 1 µM).
NC(=O)c1ccccc1NC(=O)c1cc(-c2ccccc2)n(-c2ccccc2)n1 gave an inhibition of 98% (Genome polyprotein NS2B-NS3 protease; enzyme activity, fluorogenic AMC substrate; 50 µM).

Excerpt of the above:
NC(=O)c1ccccc1NC(=O)c1cc(-c2ccccc2)n(-c2ccccc2)n1 gave an inhibition of 98% (Genome polyprotein NS2B-NS3 protease; enzyme activity, fluorogenic AMC substrate; 50 µM).
